# Assay results of several laboratories.
# A part holds a random share of what one study measured. Changes are numbered by the printed parent chain.

# Study 1
# Target: RNA binding protein fox-1 homolog 2, RRM domain, GST-SBP tag (RBFOX2, Homo sapiens, UniProt O43251-10, residues 100-194)
# Method: RNA Bind-n-Seq
# Molecule type: RNA
# Sample: in vitro
# Concentration: 365 nM
# Setting: natural RNA segment, single round, ends assumed
# Relative to: no-protein control
# Direction: higher = stronger binding
# Constant ends, left off below: GGGAGUUCUACAGUCCGACGAUC … UGGAAUUCUCGGGUGCCAA
# Residues (chain): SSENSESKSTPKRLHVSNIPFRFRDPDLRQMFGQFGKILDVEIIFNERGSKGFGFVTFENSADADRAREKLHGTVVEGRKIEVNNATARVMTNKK
Sequence,RBNS enrichment (R)
GGUUUAAAGCUUUUCAAGAACUGGGCUAAAACUCAUCCAGUUUAUCUACAGAAGCUGAAAACAGGCGUUUUAGAUAUUGGUAUAUUGGUAUAUGAUAUGGUAUGAUGCUU,0.521
UCUGAGGAAGGCCGUAAAAUGGGGACAGGAGGAUUCAGCUCAGGAGUAAGGGAAGAGGUCCUCUGGCCCCCUGAAGAUGAGAAUCACCCCUCUCAGUGCACCUGGGGAUC,0.334
UCAAAAACACUAUCAUUUCAACAUAGGAUCAAUAUAAAAAUUAUUAAUGAGUUAUUUUACUUUUUUUCAUAUUAGGCCUUUGAAAUUCAGUGUGUAUUAAACACAUCUCA,0.583
AAGCUGCGCGUUGUUCAGGCAGUUUACCCCUACUAGAGAAGAAAGGAAGAAACGCUAGAAGAAAACAGGAGAGAGAGAAAAUUUGUGAAUUGCGGUCGUCAAAACAAAAC,1.85
AGCAGACGUUAUUUUCCGUGAUUCUUAGGACUACCUGUCUGUCACGAAUCUGCCCACGGUAGUCAGGUCCCCUGAGCUCUGGACUGGAAGUGGAACUGUGUUCCUGCCAG,0.294
GUGACUUUGAGGCCUACGGGAAAAUCUGUGACCCAGGGCUGACCUCGUUUGAGCCUGAAGCACUGGGCAACCUGGUUGAAGGGAUGGACUUCCACAGAUUCUACUUCGAG,0.223
ACAGGGCAGGGGGCAGCAGGAUACCUCCAGCCAGGCCUCUGUGGCCUCUGUUUCCUUCUCCCUUUCUUGGCCCUCCUCUGCUCCUCCCCACACCCUGCAGGCAAAAGAAA,0.582
CUAAUCUGAAAUACACAUAAAUGUCAGUUACAGAGGAACAUUGUUGGGGGCAGGAGGUAAAGAAACAUCUUAGAGAAAUCCACUUUACUAUCAAGUUCACAACCAGUUUU,0.419

# Study 2
# Target: CCNB3, cyclin fold, Cln2 fusion (human)
# Method: yeast growth competition, sequencing
# Sample: yeast
# Setting: strong parent motif
# Relative to: not given
# Direction: higher = stronger binding
# Starting sequence: E2F1 docking peptide (human); PPVKRRLDFETDH; partner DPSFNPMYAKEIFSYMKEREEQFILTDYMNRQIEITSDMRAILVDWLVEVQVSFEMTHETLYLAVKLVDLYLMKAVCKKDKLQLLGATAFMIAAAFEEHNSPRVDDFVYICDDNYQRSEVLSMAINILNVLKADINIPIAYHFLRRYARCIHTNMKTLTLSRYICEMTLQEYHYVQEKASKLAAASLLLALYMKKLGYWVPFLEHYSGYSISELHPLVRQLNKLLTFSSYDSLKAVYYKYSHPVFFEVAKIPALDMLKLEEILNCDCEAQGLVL
Substitution,normalised enrichment score
PPVKRDLDFETDH [R6D],-0.271
PPVKRRLDFETHH [D12H],2.98
PPVKRRLIFETDH [D8I],2.68
PPVKRRLDFETAH [D12A],3.15
PPFKRRLDFETDH [V3F],0.317
PPVKRRLDFELDH [T11L],3.01
PPVKRRLDFEADH [T11A],1.94
PPVKRRLDFEIDH [T11I],2.8
PPVKRRLDFETFH [D12F],3.12
PPVKRRLDRETDH [F9R],-0.0803
PPVKGRLDFETDH [R5G],0.189
PPVKRRLDFETEH [D12E],2.65
PPVKRILDFETDH [R6I],2.46
PPVKRRLDYETDH [F9Y],0.533
PPVNRRLDFETDH [K4N],2.11
PPVKRRCDFETDH [L7C],0.0974
PPVKMRLDFETDH [R5M],0.0966
PPVKRRPDFETDH [L7P],-0.0944
PPVKRRLDFEPDH [T11P],2.64
PPVKRRTDFETDH [L7T],-0.0531
PPVKRRLDFWTDH [E10W],0.909

# Study 3
# Target: Phosphate system positive regulatory protein PHO4, full length, GST-tagged (PHO4, Saccharomyces cerevisiae, UniProt P07270, residues 1-312)
# Method: competition protein-binding microarray
# Molecule type: double-stranded DNA, one strand shown
# Sample: in vitro
# Concentration: 2 µM
# Setting: whole 60-bp probe, lowest competitor level
# Together with: Cbf1 competitor, 0.05 µM
# Direction: higher = stronger binding
# Constant ends, left off below: … GTCTTGATTCGCTTGACGCTGCTG
# Residues (chain): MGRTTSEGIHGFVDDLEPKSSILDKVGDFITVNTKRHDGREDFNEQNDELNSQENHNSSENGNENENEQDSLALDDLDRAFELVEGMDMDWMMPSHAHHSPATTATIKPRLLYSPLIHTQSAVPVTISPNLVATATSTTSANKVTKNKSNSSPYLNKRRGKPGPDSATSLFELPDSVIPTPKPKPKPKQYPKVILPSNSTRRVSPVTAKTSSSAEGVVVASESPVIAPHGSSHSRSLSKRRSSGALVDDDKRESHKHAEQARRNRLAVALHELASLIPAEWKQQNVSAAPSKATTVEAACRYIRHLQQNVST
Sequence,fluorescence intensity [a.u.]
TGTACAGAAAGAAAATCCGTGATGGTTTAATGGTCA,3750
CTGTGTGCCATTAGCCATGTGATGGGCCTATTAATG,9670
GCTTCTCAACTACAGCTCGTGTTCCTCTTGCAGCAA,9780
ATTACCATTCTCCGTCACGTGCAAATAAAACCACTC,15400
AGGTTTCGCCATAGCCATGTGCCTATATTAAATAGA,11600
CTTCTGTAAATTTTTCACGTGTTTTGACGCGCCCCG,12600
TTCAAGCTAAATGAAAATGATTTAAAGACATATAAT,3460
ATACTCGCTCGCGGCCACGGGTCAACCCGATTGGGA,8280
CTTTCCCGATCTTGAGCGGTGGGTGTAGCACATTTG,4720
CGGGGTTAAGTTTTTCACGTGGCATGCTTGCAGCAG,12200
GTAGTTATGGAAGTGCCCGTGGACCATGCCTTCTTT,6840
TATGCTGTGTTTGACCAGGCGAACAACATTGAGAGA,3540
GGAGGCTTTGCGTCCCACGTGAGGCTTCATGAACAA,15100
CTAACGAAGGTTTGTCACGCGACTTACAAGCCAAGT,8230
CATCTTATTTACGAACTCGTGATGGTTTTGTAAAAT,9050
GTCTTGTCTCATTGATCCGTGGGTGTCCCCACTTCA,5910
TCCAGCAGAACCAGCCATGTGCGAAGAAAAACAATT,10000
AGTTCCGCTGTGCTGCATGTGTGTGTATGCCAATAT,9150
CGGGGTTAAGTTTGTCACGTGTTTTGCTTGCAGCAG,13500

# Study 4
# Target: TAR DNA-binding protein 43, full length, His tag (TARDBP, Homo sapiens, UniProt Q13148, residues 1-414)
# Method: RNA Bind-n-Seq
# Molecule type: RNA
# Sample: in vitro
# Concentration: 20 nM
# Setting: 6-mer, flanks averaged, single round
# Together with: 150 mM LiCl
# Relative to: input library
# Direction: higher = stronger binding
Sequence,6-mer enrichment (R)
GGGGGC,1.44
UAAGAC,0.823
GCAGAG,1.02
AGAAGA,0.919
AGCGUA,0.923
CCUGUU,1.01
CGCCAC,0.947
GGACCU,0.94
GGUUGC,1.12
CCCUCA,1.05
AAAGAG,0.936
CGAGAC,0.886
UAGCGC,0.946
GUUGAU,1.08
GGCUGC,1.03
AUGCAA,0.887
GUUAAC,0.909
UCUACA,0.83
UGUUCG,1.05

# Excerpt of the above (study 2):
Substitution,normalised enrichment score
PPVKRRLDFEADH [T11A],1.94
PPVKRRLDFWTDH [E10W],0.909
PPVKRRCDFETDH [L7C],0.0974
PPVKRRLIFETDH [D8I],2.68
PPVKRRLDFETEH [D12E],2.65
